Measured values collected from several papers.
Every numbered part comes from another study and shows a few of its results, in no order.

Series 1 — technique: RNA Bind-n-Seq; form: RNA; matrix: in vitro; tested at: 200 nM; notes: whole 134-nt RNA, ends assumed; added: 150 mM LiCl; baseline: input library; direction: higher = stronger binding; quantity: log2 enrichment; all molecules: 7-deaza-guanosine replaces G
Target: Ras GTPase-activating protein-binding protein 1, full length (G3BP1, Homo sapiens, UniProt Q13283)
UniProt Q13283, sequence (whole entry, looked up): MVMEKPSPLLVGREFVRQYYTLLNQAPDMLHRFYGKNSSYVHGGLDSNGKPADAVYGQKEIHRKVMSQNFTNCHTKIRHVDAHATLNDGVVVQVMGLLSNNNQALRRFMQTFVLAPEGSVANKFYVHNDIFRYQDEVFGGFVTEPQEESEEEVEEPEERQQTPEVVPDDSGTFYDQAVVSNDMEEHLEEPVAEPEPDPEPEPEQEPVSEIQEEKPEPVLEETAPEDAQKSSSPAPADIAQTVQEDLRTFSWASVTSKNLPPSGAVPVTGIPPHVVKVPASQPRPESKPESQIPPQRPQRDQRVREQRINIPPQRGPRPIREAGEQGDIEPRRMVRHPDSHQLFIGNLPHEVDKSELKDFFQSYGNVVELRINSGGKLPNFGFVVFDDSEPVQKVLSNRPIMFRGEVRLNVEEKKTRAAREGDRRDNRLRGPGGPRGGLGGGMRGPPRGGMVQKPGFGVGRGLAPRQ
All sequences stand within: GGGAGUUCUACAGUCCGACGAUC … UGGAAUUCUCGGGUGUCAAGG
GUCCUGUGCUACACAUCGUAUGUACCGAAUCGGGCCCCCGGGCCCCCGGGGCCCCCGGAAAGUAUUAUGUUACGCCGUUCGGAUCUGCAC: -2.13
CAAGUCCUGUGCUACACAUCGUAUGUACCGAAUCGGGGCCCGGGCCCGGGGCCCGGAAAGUAUUAUGUUACGCCGUUCGGAUCUGCACUU: -0.72
UUAAAACAUGGCAACUUGUAAUUGUUUUCUUUCUUAGGAACAUCAUUCAUGGCAGUGAUUCAGUAAAAAGUGCUGAAAAAGAAAUCAGCC: -0.977
UGGGAGGUGGAUUUUGUUUAUUUUCUUAGCUCAUUUCCAGGGGUGGGAAUUUUUUUUUAAUAUGUGUCAUGAAUAAAGUUGUUUUUGAAA: -0.738
AGUCCUGUGCUACACAUCGUAUGUACCGAAUCGGGGAAAAGGGGAAAAGGGAAAAGGAAAGUAUUAUGUUACGCCGUUCGGAUCUGCACU: -0.631
UGGUCCUGGUGGCAUGCGGGGAGGAAGAGGUGGCCUCAUGGAUCGUGGUGGUCCCGGUGGAAUGUUCAGAGGUGGCCGUGGUGGAGACAG: 0.274
AGUCCUGUGCUACACAUCGUAUGUACCGAAUCGGGGCCCCGGGCCCCGGGGCCCCGGGAAAGUAUUAUGUUACGCCGUUCGGAUCUGCAC: -0.0682
AAGUCCUGUGCUACACAUCGUAUGUACCGAAUCGGUUUUUGGUUUGGUUUUUUUGGAAAGUAUUAUGUUACGCCGUUCGGAUCUGCACUU: -1.96
UUUGUCCCUGCUCAGGAUGAGACUUCUGUGAGCAGCGAGGAUUUUGAUAUGAGCGACUCCACAUGGAUGUCAGCUGACCCGCACCUGGCC: -1.04
CCUCAAGUCCUGUGCUACACAUCGUAUGUACCGAAUCGGAGGAGGAAAAAGGAAAGUAUUAUGUUACGCCGUUCGGAUCUGCACUUCCAG: -0.627
UCAAGUCCUGUGCUACACAUCGUAUGUACCGAAUCGGCCCGGGGCCCGGCCCGGAAAGUAUUAUGUUACGCCGUUCGGAUCUGCACUUCC: -0.162

Series 2 — technique: RNA Bind-n-Seq; form: RNA; matrix: in vitro; tested at: 365 nM; baseline: no-protein control; direction: higher = stronger binding; quantity: RBNS enrichment (R)
Target: RNA binding protein fox-1 homolog 2, RRM domain, GST-SBP tag (RBFOX2, Homo sapiens, UniProt O43251-10, residues 100-194)
Notes: natural RNA segment, single round, ends assumed
All sequences stand within: GGGAGUUCUACAGUCCGACGAUC … UGGAAUUCUCGGGUGCCAA
Target sequence (chain): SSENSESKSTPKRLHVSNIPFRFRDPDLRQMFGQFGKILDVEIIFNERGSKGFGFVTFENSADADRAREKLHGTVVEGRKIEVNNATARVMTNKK
GGAUCUCCCUUCCUUGAGGAUGUUCUUGGCAUGGUCCUGCCCUACCUCAUGGGAUGGGCAAUGCACACACUGGCCCUUAUUUUUCCCUUUCAAAUAAAACACCAGUCAGG: 1.01
CAUCUUUAUAUUUUUAAAAUUGUAUUGCUGCUCAAGAAUGGUACCCUUUUGUCAAAAAGGUAGAUAUUCAUAAUUGUACAUUCAGCAUUGUAAAUACCAUAUGAAAUCCU: 0.417
AGUUGUUCAUUCCAGUCCUCUAAGUCUCAUUUCGUAUACAUUAUAUAAGCAAAUUAAGAAUUACUCAUUCAAAUUUUUCCAGUGUUAAUCGAUAAUAAAUGAUGGCUUGA: 0.28
UAAAUUAUGCUUCCAACCUUGUAUAGGUUUGUAAGCUUGCCCAGAAGUGAGACCACUGUUGAAGUACCACAAAAGUUUGAAUGAACGAGUGAGUGUUCACUCUUUUGUCU: 0.319
CCCCUACACCUUCUGGGCUGAAGAUCACCCAGCUGUGUUCAGAAUUUUCUUACUGUGCUUAGGACUGCACGCAAGUGAGCAGACACCACCGACUUCCUUUCUGCGUCACC: 0.956
UUGUUACCCUACACAUUUCAUGGAAGCAUCUUCACAAAAUAUCAGACACAGUGGAAGGGGGAAAAAAAGCUACGAGAUUGUUUUUACACUUUUAGCAAAGUUUCUGUGGA: 1.2
CUUGGUCUGACUUGGCCAUGGGAGCCUUUCCCAACCCAGUGUGGAAGGGAGUCGGGAGGGAAGGAAGGGGUAGGCUCGCCCUGCUUUAUCCAUGCUAGAACCAUGGUAUC: 0.461
CGCUCUUGUGUCACUGCUGUCCUGAGGAAUUCAACUUCUCCAGAAGUGACCUCCUUUUCCUUAUUUAUAUUUCCUGGCCACUAUUCAGUUGUAAGAUAACAUUUGAAAUG: 0.461
AAUAAGCGUGCUAAAUUAAAUUGUCUUAAGGUUUUUCCACUUCAUUUUGUGACUUUGUGUGGUUCGAAUUUCUCAGUAUUUUAACCAGUGUGUUGAUGUUAAAGUCAAAG: 2.98
GACUGCUCCACUUACCCCAGUGCUGGGGACAAGUUUCUGUUGAAACUUUAGAUAGCAGAAUUAUUUGCAAUUUGUAGCAUAGAAAAGAUUUUUAAAUUUUUUUACAAAAG: 0.843
AAUCAUCUCUCUCAAGUUCAAAGUUCCACAAAUCCCUAUGGAAGGGGCAAAAUGCUGCCAGUCUCUUUGCUAAAACAUAACAAGAGUCACCUUUACUCCAGUUCCCAACA: 0.646
UUUAUAGUUGGCACUUGAUUGCAGUUCUGUGAGGCUUGAGCAUUCAUACACCUCACCUGCCUUGGCAAGCCUAUUUUAGUGAUAUGGCAGCACGGAUAUAACACUAUGCA: 14.2

Series 3 — technique: universal PBM; form: double-stranded DNA, one strand shown; matrix: in vitro; tested at: not given; direction: higher = stronger binding; quantity: E-score
Target: Sal-like protein 4, full length isoform B (SALL4, Homo sapiens, UniProt Q9UJQ4-2, residues 1-616)
Notes: 8-mer, flanks averaged, mean of replicates
Target sequence (chain): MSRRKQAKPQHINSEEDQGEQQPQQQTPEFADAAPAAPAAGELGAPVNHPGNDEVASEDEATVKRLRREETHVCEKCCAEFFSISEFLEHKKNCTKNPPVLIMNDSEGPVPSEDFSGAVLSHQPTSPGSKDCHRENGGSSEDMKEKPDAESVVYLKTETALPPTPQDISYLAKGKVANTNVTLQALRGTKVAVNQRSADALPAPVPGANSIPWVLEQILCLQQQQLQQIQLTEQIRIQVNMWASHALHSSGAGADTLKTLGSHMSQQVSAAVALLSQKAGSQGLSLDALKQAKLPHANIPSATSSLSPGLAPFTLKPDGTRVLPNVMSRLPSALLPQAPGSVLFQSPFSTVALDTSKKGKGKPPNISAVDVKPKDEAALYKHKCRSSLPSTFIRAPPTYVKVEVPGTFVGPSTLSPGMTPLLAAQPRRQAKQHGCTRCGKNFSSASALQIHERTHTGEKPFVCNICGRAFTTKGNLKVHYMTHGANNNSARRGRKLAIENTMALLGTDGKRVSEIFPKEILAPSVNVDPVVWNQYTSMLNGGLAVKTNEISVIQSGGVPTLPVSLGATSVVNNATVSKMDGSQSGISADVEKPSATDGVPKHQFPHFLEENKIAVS
AGTTACAT: 0.208
AATTAGGT: 0.244
CAACCAGC: -0.285
ACCCGACA: -0.224
GGGTACAC: -0.186
ATGAGACA: 0.161
TACAGTCA: 0.193
ATCCGCTA: -0.0635
TCTGTGAA: 0.117
AGAGACAA: 0.101
CGAAGCTC: -0.356
GTCCAACA: -0.151
CTTAAGAC: 0.0393
CATGTCGC: -0.0664
CTTAGGGA: -0.115
ACGCTCTG: -0.177
ATTATTGA: 0.428
GAAACGGA: -0.00658

Series 4 — technique: aptamer microarray, sandwich; form: DNA with 2'F-ANA; matrix: in vitro; tested at: 200 nM; added: Cy3 exosite-II aptamer, 400 nM; direction: higher = stronger binding; quantity: mean fluorescence intensity; oligonucleotide: GGTTGGTGTGGTTGG
Target: Prothrombin, mature alpha-thrombin (F2, Homo sapiens, UniProt P00734)
Notes: whole 15-mer aptamer, many near background
2'F-ANA at 1 4 8 9 11 14: 49.7 a.u.
2'F-ANA at 2 3 5 10 11 12 13 14: 51.6 a.u.
2'F-ANA at 1 3 6 7 8 10 13 14 15: 57.4 a.u.
2'F-ANA at 2 4 8 10 11 12 13 14: 62.5 a.u.
2'F-ANA at 1 2 5 9 10 11 14: 45.7 a.u.
2'F-ANA at 1 2 3 6 8 9 12 15: 421 a.u.
2'F-ANA at 3 5 7 8 10 11 12 13 14: 52.8 a.u.
2'F-ANA at 1 4 6 7 8 9 11 12 13 14 15: 60.4 a.u.
2'F-ANA at 2 3 5 6 7 9 11 13: 65.3 a.u.
2'F-ANA at 1 2 3 6 8 10 11: 62.9 a.u.
2'F-ANA at 2 3 4 5 7 8 9 10 11 14 15: 51.3 a.u.
2'F-ANA at 3 4 5 7 11 13 15: 68.4 a.u.
2'F-ANA at 2 3 6 7 10 11 14: 272 a.u.
2'F-ANA at 1 2 3 4 7 8 9 10 13 14: 48.8 a.u.
2'F-ANA at 1 2 3 5 11 12: 97 a.u.
2'F-ANA at 1 3 5 6 7 8 9 13 14 15: 46.2 a.u.
2'F-ANA at 1 2 4 9 11 12 13 14: 51 a.u.
2'F-ANA at 1 3 4 10 11 13 15: 60.8 a.u.
2'F-ANA at 1 2 6 7 11: 129 a.u.
2'F-ANA at 1 2 6 7 8 9 11 13 14: 54.5 a.u.
2'F-ANA at 1 2 3 5 8 9 11 14 15: 46.6 a.u.
2'F-ANA at 1 2 3 4 6 7 9 12 14 15: 67.7 a.u.
2'F-ANA at 2 4 6 9 10 11 12 14 15: 63.3 a.u.
2'F-ANA at 1 2 3 4 6 8 9 13: 103 a.u.
2'F-ANA at 1 7 8 11: 221 a.u.
